{"data": "Experimental data pooled from the literature"}
{"Structure (SMILES)": "O=S(=O)(N[C@H]1CCC[C@@H](N2c3ccccc3CCc3ccccc32)[C@@H]1O)c1ccc(OC(F)(F)F)cc1", "host": "mouse", "medium": "plasma", "route": "oral", "dose": "100 mg/kg", "setting": "suspension", "AUC": "7130 ng·h/mL"}
{"Structure (SMILES)": "CN[C@H](CC(C)C)C(=O)N[C@H]1C(=O)N[C@@H](CC(N)=O)C(=O)N[C@H]2CN[C@H]3C(=O)N[C@H](C(=O)N[C@H](C(=O)NCCCNC(=N)N)c4cc(O)cc(O)c4-c4cc3ccc4O)[C@H](O)c3ccc(c(Cl)c3)Oc3cc2cc(c3O[C@@H]2O[C@H](CO)[C@@H](O)[C@H](O)[C@H]2O[C@H]2C[C@](C)(NCc3ccc(-c4ccc(Cl)cc4)cc3)[C@H](O)[C@H](C)O2)Oc2ccc(cc2Cl)[C@H]1O", "host": "mouse", "route": "intravenous", "dose": "10 mg/kg", "AUC": "203 µM·h"}
{"Structure (SMILES)": "CC(C)(O)Cn1nc(-c2ccccc2)c2c(Cl)c(-c3ccccc3)nnc21", "host": "mouse juvenile P20", "medium": "plasma", "route": "intraperitoneal", "dose": "130 mg/kg", "AUC": "25.7 µM·h"}
{"Structure (SMILES)": "COC1C=COC2(C)Oc3c(C)c(O)c4c(c3C2=O)C2=NC3(CCN(CC(C)C)CC3)NC2=C(NC(=O)C(C)=CC=CC(C)C(O)C(C)C(O)C(C)C(OC(=O)Nc2cscn2)C1C)C4=O (stereo not drawn)", "host": "CD-1 mouse", "medium": "plasma", "route": "oral", "dose": "12.5 mg/kg", "setting": "efficacy dose", "AUC": "40000 ng·h/mL"}
{"Structure (SMILES)": "OCCn1nc(-c2ccccc2)c2c(Cl)c(-c3ccccc3)nnc21", "host": "mouse juvenile P20", "medium": "plasma", "route": "intraperitoneal", "dose": "100 mg/kg", "AUC": "5.7 µM·h"}
{"Structure (SMILES)": "COC1C=COC2(C)Oc3c(C)c(O)c4c(c3C2=O)C2=NC3(CCN(CC(C)C)CC3)NC2=C(NC(=O)C(C)=CC=CC(C)C(O)C(C)C(O)C(C)C(OC(=O)Nc2cnccn2)C1C)C4=O (stereo not drawn)", "host": "CD-1 mouse", "medium": "plasma", "route": "oral", "dose": "dose not given", "setting": "efficacy dose", "AUC": "107000 ng·h/mL"}
{"Structure (SMILES)": "O=c1c(-c2cnn(-c3ccccc3)c2)c(C(F)(F)F)oc2c(O)c(O)ccc12", "host": "mouse", "route": "intraperitoneal", "dose": "100 mg/kg", "setting": "DMSO vehicle", "AUC": "19.6 µM·h"}
{"Structure (SMILES)": "COC1C=COC2(C)Oc3c(C)c(O)c4c(c3C2=O)C2=NC3(CCN(CC(C)C)CC3)NC2=C(NC(=O)C(C)=CC=CC(C)C(O)C(C)C(O)C(C)C(OC(=O)c2cccnc2)C1C)C4=O (stereo not drawn)", "host": "CD-1 mouse", "medium": "plasma", "route": "oral", "dose": "12.5 mg/kg", "setting": "efficacy dose", "AUC": "133000 ng·h/mL"}
{"Structure (SMILES)": "CN[C@H](CC(C)C)C(=O)N[C@H]1C(=O)N[C@@H](CC(N)=O)C(=O)N[C@H]2C(=N)N[C@H]3C(=O)N[C@H](C(=O)N[C@H](C(=O)NCCC[N+](C)(C)C)c4cc(O)cc(O)c4-c4cc3ccc4O)[C@H](O)c3ccc(c(Cl)c3)Oc3cc2cc(c3O[C@@H]2O[C@H](CO)[C@@H](O)[C@H](O)[C@H]2O[C@H]2C[C@](C)(NCc3ccc(-c4ccc(Cl)cc4)cc3)[C@H](O)[C@H](C)O2)Oc2ccc(cc2Cl)[C@H]1O", "host": "mouse", "route": "intravenous", "dose": "50 mg/kg", "AUC": "714 µM·h"}
{"note": "For quick reference, copied from above:"}
{"Structure (SMILES)": "COC1C=COC2(C)Oc3c(C)c(O)c4c(c3C2=O)C2=NC3(CCN(CC(C)C)CC3)NC2=C(NC(=O)C(C)=CC=CC(C)C(O)C(C)C(O)C(C)C(OC(=O)c2cccnc2)C1C)C4=O (stereo not drawn)", "host": "CD-1 mouse", "medium": "plasma", "route": "oral", "dose": "12.5 mg/kg", "setting": "efficacy dose", "AUC": "133000 ng·h/mL"}
